Assay results from different studies.
Every numbered part comes from another study and shows a few of its results, in no order. Several values in a cell are separate wells, animals, samples, runs or records.
UniProt O75460, sequence (whole entry, looked up): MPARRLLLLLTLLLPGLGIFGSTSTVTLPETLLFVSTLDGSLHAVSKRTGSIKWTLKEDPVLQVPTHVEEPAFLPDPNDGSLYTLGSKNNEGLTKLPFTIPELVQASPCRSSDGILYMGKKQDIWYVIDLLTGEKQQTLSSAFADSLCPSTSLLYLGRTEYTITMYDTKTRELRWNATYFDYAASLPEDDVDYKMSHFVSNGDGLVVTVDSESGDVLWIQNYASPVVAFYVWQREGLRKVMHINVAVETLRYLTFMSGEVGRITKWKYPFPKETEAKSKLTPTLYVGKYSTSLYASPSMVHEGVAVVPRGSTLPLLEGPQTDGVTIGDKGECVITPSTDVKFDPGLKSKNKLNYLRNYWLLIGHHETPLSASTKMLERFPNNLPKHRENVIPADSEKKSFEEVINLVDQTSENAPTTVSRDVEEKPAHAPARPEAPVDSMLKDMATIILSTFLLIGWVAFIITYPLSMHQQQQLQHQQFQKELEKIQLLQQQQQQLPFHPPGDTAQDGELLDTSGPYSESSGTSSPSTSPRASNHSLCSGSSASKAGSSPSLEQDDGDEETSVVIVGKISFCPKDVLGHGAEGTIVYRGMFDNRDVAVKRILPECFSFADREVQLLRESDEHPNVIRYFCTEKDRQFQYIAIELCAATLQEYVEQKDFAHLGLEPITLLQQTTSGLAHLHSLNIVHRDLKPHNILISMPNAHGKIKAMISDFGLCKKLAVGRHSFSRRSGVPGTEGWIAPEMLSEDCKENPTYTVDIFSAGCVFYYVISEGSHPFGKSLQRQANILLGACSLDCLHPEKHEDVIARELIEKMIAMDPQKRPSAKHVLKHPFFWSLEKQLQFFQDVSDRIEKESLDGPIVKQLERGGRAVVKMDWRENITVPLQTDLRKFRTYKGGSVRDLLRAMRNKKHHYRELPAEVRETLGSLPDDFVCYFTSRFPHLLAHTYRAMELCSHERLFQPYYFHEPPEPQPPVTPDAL
UniProt Q08345, sequence (whole entry, looked up): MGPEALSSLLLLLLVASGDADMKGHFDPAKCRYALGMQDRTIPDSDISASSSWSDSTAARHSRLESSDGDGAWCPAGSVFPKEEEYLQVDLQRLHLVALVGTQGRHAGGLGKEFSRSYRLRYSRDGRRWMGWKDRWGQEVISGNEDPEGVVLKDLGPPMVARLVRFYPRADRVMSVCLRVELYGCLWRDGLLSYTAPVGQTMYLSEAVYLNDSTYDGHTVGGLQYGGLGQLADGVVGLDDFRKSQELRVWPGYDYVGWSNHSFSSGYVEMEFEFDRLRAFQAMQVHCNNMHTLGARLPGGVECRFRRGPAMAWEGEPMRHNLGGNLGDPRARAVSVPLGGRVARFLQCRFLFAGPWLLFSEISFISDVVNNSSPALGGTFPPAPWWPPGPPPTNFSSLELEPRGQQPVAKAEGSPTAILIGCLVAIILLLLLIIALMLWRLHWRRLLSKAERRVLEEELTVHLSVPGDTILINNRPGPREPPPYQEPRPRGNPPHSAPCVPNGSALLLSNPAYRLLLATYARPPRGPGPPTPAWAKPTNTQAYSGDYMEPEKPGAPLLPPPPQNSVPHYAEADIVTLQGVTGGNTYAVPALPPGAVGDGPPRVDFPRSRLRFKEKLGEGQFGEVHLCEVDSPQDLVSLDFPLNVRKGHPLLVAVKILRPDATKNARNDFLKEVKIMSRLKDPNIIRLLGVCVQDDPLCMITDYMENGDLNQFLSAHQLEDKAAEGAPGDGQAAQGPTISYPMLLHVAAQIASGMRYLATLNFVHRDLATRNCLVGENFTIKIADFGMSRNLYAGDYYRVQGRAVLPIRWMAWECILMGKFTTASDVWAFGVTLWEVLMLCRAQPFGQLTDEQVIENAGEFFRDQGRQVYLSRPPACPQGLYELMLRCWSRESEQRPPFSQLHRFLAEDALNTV
UniProt Q8NFD2, sequence (whole entry, looked up): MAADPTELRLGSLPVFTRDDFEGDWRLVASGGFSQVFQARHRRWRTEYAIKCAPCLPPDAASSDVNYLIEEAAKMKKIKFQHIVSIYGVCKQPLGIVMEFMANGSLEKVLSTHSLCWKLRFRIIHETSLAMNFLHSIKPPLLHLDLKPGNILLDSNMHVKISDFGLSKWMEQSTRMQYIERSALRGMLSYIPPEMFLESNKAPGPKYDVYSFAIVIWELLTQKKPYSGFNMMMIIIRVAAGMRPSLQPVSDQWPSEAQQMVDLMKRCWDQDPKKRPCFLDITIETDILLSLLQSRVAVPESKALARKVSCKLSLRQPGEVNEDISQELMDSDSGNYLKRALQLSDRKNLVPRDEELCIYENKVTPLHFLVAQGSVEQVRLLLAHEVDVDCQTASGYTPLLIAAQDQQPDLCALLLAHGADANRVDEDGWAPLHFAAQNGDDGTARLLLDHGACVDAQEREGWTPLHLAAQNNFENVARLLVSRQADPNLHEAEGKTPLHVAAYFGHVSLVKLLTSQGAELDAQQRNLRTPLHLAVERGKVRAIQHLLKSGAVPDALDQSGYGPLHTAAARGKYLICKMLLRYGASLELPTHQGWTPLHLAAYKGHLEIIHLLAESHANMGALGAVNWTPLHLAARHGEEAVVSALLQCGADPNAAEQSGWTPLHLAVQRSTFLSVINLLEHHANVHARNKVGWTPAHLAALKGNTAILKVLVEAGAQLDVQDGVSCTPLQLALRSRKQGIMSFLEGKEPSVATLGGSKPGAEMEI

Block 1 — read-out: enzyme activity; action: inhibitor; tested at: 10 µM
Target: Calcium/calmodulin-dependent protein kinase type II subunit alpha (CAMK2A, Homo sapiens, UniProt Q9UQM7)
UniProt Q9UQM7, sequence (whole entry, looked up): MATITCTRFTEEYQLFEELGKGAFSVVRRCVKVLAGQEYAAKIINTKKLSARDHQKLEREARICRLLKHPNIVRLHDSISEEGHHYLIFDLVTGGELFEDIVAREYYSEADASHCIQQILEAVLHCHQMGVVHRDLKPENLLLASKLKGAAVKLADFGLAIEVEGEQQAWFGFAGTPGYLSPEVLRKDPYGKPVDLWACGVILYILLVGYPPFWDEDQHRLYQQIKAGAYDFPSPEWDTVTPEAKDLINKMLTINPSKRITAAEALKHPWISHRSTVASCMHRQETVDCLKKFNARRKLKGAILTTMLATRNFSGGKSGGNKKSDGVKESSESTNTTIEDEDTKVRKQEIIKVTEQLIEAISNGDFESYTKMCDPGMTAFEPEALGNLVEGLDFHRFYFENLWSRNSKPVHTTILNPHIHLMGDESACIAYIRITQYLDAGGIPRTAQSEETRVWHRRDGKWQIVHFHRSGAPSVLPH
Structure (SMILES)	inhibition [%]
O=c1[nH]cc(CO)c(=O)[nH]1	0
O=C(O)[C@H]1O[C@@H](Oc2cc(O)c3c(=O)cc(-c4ccc(O)cc4)oc3c2)[C@H](O)[C@@H](O)[C@@H]1O	-10
Cc1ccc(C=O)o1	10
COc1cc2ccc(=O)oc2c(O)c1O	-40
CN(C)/N=N/c1nc[nH]c1C(N)=O	-2
CN/C(=N\CCSCc1nc[nH]c1C)NC#N	3
O=C(O)/C=C(\CC(=O)O)C(=O)O	-1
CSCC[C@H](N)C(=O)O	29
CCCCCCCCCCCCCC(=O)O	-89
OC[C@H]1O[C@@H](OC/C=C/c2ccccc2)[C@H](O)[C@@H](O)[C@@H]1O	5
Cn1c(=O)c2c(ncn2CC2OCCO2)n(C)c1=O	-9
COc1cc2c(c(OC)c1OC)-c1c(cc3c(c1OC)OCO3)C[C@H](C)[C@](C)(O)C2	-10
O=C(c1cc(Cl)c(O)c(Cl)c1)N1CS(=O)(=O)c2ccccc21	3
CC(C)Oc1ccc2c(=O)c(-c3ccccc3)coc2c1	-9

Block 2 — read-out: enzyme activity; action: inhibitor; tested at: 0.5 µM; relative to: control
Target: NUAK family SNF1-like kinase 2 (NUAK2, Homo sapiens, UniProt Q9H093)
UniProt Q9H093, sequence (whole entry, looked up): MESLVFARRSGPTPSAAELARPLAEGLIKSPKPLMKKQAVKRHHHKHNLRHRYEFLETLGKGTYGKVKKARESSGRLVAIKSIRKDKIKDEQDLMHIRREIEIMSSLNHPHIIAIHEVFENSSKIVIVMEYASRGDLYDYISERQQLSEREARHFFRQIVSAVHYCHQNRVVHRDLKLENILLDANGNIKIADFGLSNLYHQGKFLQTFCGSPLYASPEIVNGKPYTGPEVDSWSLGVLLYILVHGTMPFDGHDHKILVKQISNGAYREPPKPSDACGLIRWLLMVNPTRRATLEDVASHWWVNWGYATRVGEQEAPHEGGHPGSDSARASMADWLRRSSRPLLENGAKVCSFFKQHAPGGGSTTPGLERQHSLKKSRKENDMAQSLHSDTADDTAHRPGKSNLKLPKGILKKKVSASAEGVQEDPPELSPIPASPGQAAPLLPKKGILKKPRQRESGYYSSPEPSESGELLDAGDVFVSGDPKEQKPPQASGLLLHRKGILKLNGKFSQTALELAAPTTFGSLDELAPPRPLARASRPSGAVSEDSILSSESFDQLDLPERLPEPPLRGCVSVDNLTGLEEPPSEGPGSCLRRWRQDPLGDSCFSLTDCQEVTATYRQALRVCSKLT
SMILES	remaining activity
O=C(Nc1ccc(Cl)cc1)c1ccccc1NCc1ccncc1	137%
COc1cc2ncnc(Nc3ccc(OCc4ccccc4)cc3)c2cc1OC	102%
C[S+]([O-])c1ccc(-c2nc(-c3ccncc3)c(-c3ccc(F)cc3)[nH]2)cc1 (stereo not drawn)	131%
CC(C)[C@H](CO)Nc1nc(Nc2cccc(Cl)c2)c2ncn(C(C)C)c2n1	134%
Cn1cnc2cc3c(Nc4cccc(Br)c4)ncnc3cc21	102%
CS(=O)(=O)CCNCc1ccc(-c2ccc3ncnc(Nc4ccc(OCc5cccc(F)c5)c(Cl)c4)c3c2)o1	95.1%
COc1cc2ncc(-c3ccccc3)nc2cc1OC	133%
CN(C)CCCn1cc(C2=C(c3c[nH]c4ccccc34)C(=O)NC2=O)c2ccccc21	66%
COc1ccc(Cl)cc1NC(=O)Nc1cc(C)nc2ccccc12	100%
Cc1nc(Nc2ncc(C(=O)Nc3c(C)cccc3Cl)s2)cc(N2CCN(CCO)CC2)n1	101%
COc1ccc(-c2cnc3c(-c4ccsc4)cnn3c2)cc1	138%
O=c1cc(N2CCOCC2)oc2c1ccc1ccccc12	120%
Cc1ccc(NC(=O)c2ccc(CN3CCN(C)CC3)cc2)cc1Nc1nccc(-c2cccnc2)n1	98.6%
COc1cc2ncnc(N3CCN(C(=O)Nc4ccc(Oc5ccccc5)cc4)CC3)c2cc1OC	77.4%
CCOc1cc2ncnc(Nc3cccc(Br)c3)c2cc1OCC	89.7%
O=C1NC(=O)/C(=C/c2ccc3nccnc3c2)S1	76%
CC(=O)O/N=C1/C(c2c(O)[nH]c3cc(Br)ccc23)=Nc2ccccc21	85.2%
Cn1cc(/C=C2\C(=O)Nc3ccc(S(N)(=O)=O)cc32)c2ccccc21	102%
CCN1/C(=C/C(C)=O)Sc2ccc(OC)cc21	107%
CCC(=O)Nc1ccc2ncnc(Nc3cccc(Br)c3)c2c1	77.4%
CC(C)c1nn(-c2c(Cl)cccc2Cl)c2nc(Cc3ccc(OCCO)cc3)[nH]c(=O)c12	91.7%
Nc1[nH]nc2nnc(-c3c(-c4ccccc4)nn4ccccc34)cc12	87.3%

Block 3 — cell line: normal organoid sample E; technique: CellTiter-Glo; species: human; matrix: normal-adjacent epithelium; tested at: 1 µM; relative to: DMSO
Compound	viability
C[C@@H](c1cccc(C#N)c1)n1cc(Cl)cc(C(N)=O)c1=N	111% and 133%
COc1cc(-c2cn(C3CCc4c(F)cccc4N(CC(F)(F)F)C3=O)nn2)ccc1-n1cnc(C)c1 (stereo not drawn)	129% and 114%
C[C@@H](NC(=O)Nc1cc2[nH]ncc2c(CO)n1)c1ccccc1	66.4% and 58.7%
Cn1cncc1[C@@](O)(COc1ccc(C#N)cc1-c1ccc(OC(F)(F)F)cc1)c1ccc(C#N)cc1	72.6% and 100%
CCC(=O)N[C@@H]1CC[C@H](C(=O)N(C)c2ccc(-c3nc4ccccc4o3)cc2)C1	93.7% and 75.5%
Cc1noc([C@H]2C[C@@H](c3ccc(C(F)(F)F)cc3)CN(C(=O)N3CCS(=O)(=O)C3)C2)n1	128% and 98.5%
Cn1cnc2c(F)c(Nc3ccc(Br)cc3Cl)c(C(=O)NOCCO)cc21	98.2% and 66.3%
CC(=O)N1CCC(c2ccc(C(=O)NC3=NCCN3)cc2C(F)(F)F)CC1	90.7% and 88.2%
CN1CCN(Cc2ccc(Nc3ncc(Cl)c(Nc4ccccc4S(=O)(=O)N(C)C)n3)cc2)CC1	6.7% and 7.8%
CO[C@H]1CC[C@H](CNc2ccc(S(=O)(=O)NC(=O)c3ccc(N4CCN(CC5=C(c6ccc(Cl)cc6)CC(C)(C)CC5)CC4)cc3Oc3cnc4[nH]ccc4c3)cc2[N+](=O)[O-])CC1	70.3% and 76.5%
Cc1nc(C2CCN(C(=O)c3ccc(OC(F)(F)F)cc3N)CC2)c2ncc(N3CCN(C)CC3)cc2n1	120% and 106%

Block 4 — tested at: 1 µM
SMILES: Cc1ccc(NC(=O)c2ccnc(C(F)(F)F)c2)cc1-c1cc(OCCO)nc(N2CCOCC2)c1
target	assay	setting	scale	remaining binding
Ephrin type-B receptor 3 (EPHB3, Homo sapiens, UniProt P54753)	competitive binding panel	–	relative to: vehicle	91%
Phosphatidylinositol 5-phosphate 4-kinase type-2 beta (PIP4K2B, Homo sapiens, UniProt P78356)	competitive binding panel, refers to: PIP5K2B	–	relative to: vehicle	100%
Serine/threonine-protein kinase Nek9 (NEK9, Homo sapiens, UniProt Q8TD19)	competitive binding panel	–	relative to: vehicle	100%
Mitogen-activated protein kinase 9 (MAPK9, Homo sapiens, UniProt P45984)	competitive binding	JNK2	–	83%
Ephrin type-B receptor 2 (EPHB2, Homo sapiens, UniProt P29323)	competitive binding panel	–	relative to: vehicle	85%
Calcium/calmodulin-dependent protein kinase type II subunit gamma (CAMK2G, Homo sapiens, UniProt Q13555)	competitive binding panel	–	relative to: vehicle	99%
Tyrosine-protein kinase Blk (BLK, Homo sapiens, UniProt P51451)	competitive binding panel	–	relative to: vehicle	100%
Myosin light chain kinase family member 4 (MYLK4, Homo sapiens, UniProt Q86YV6)	competitive binding panel	–	relative to: vehicle	96%
Tyrosine-protein kinase Yes (YES1, Homo sapiens, UniProt P07947)	competitive binding	YES	–	87%
Atypical kinase COQ8A, mitochondrial (COQ8A, Homo sapiens, UniProt Q8NI60)	competitive binding, DiscoverX scanMAX binding	–	–	99%
Serine/threonine-protein kinase/endoribonuclease IRE1 (ERN1, Homo sapiens, UniProt O75460)	competitive binding panel	–	relative to: vehicle	71%
Ankyrin repeat and protein kinase domain-containing protein 1 (ANKK1, Homo sapiens, UniProt Q8NFD2)	competitive binding panel	–	relative to: vehicle	81%
Dual specificity tyrosine-phosphorylation-regulated kinase 1A (DYRK1A, Homo sapiens, UniProt Q13627)	competitive binding panel	–	relative to: vehicle	100%
Mitogen-activated protein kinase 6 (MAPK6, Homo sapiens, UniProt Q16659)	competitive binding panel, refers to: ERK3	–	relative to: vehicle	78%
Phosphatidylinositol 3-kinase C2 domain-containing subunit gamma (PIK3C2G, Homo sapiens, UniProt O75747)	competitive binding panel	–	relative to: vehicle	96%
Phosphatidylinositol 4,5-bisphosphate 3-kinase catalytic subunit beta isoform (PIK3CB, Homo sapiens, UniProt P42338)	competitive binding panel	–	relative to: vehicle	100%
Epithelial discoidin domain-containing receptor 1 (DDR1, Homo sapiens, UniProt Q08345)	competitive binding panel	–	relative to: vehicle	0.3%
Receptor-type tyrosine-protein kinase FLT3 (FLT3, Homo sapiens, UniProt P36888)	competitive binding scan	autoinhibited form	–	99%
Homeodomain-interacting protein kinase 2 (HIPK2, Homo sapiens, UniProt Q9H2X6)	competitive binding panel	–	relative to: vehicle	76%

Repeated from above (block 3):
Compound	viability
CN1CCN(Cc2ccc(Nc3ncc(Cl)c(Nc4ccccc4S(=O)(=O)N(C)C)n3)cc2)CC1	6.7% and 7.8%
Cc1nc(C2CCN(C(=O)c3ccc(OC(F)(F)F)cc3N)CC2)c2ncc(N3CCN(C)CC3)cc2n1	120% and 106%
C[C@@H](NC(=O)Nc1cc2[nH]ncc2c(CO)n1)c1ccccc1	66.4% and 58.7%
C[C@@H](c1cccc(C#N)c1)n1cc(Cl)cc(C(N)=O)c1=N	111% and 133%
Cc1noc([C@H]2C[C@@H](c3ccc(C(F)(F)F)cc3)CN(C(=O)N3CCS(=O)(=O)C3)C2)n1	128% and 98.5%
